Published values gathered from unrelated publications.
A part holds a random share of what one study measured. Changes are numbered by the printed parent chain.

Series 1
Target: Interferon regulatory factor 5, full length, phosphomimetic (IRF5, Homo sapiens, UniProt Q13568-2, residues 1-514, K96S/S451D/S453D/S456D/S462D)
Technique: protein-binding microarray
Form: double-stranded DNA, one strand shown
Matrix: in vitro
Tested at: 250 nM
Notes: 60-bp whole probe
Added: salmon DNA 0.4 mg/ml
Relative to: random background probes
Reading: higher = stronger binding
Measurement: log fluorescence
All sequences stand within: GCCTAGCAC … GTCTTGATTCGCTTGACGCTGCTG
TTAGGTATCGGGTATCGGTCAGTGCTA: 6.39 z-score
TCACCAATGGTCTTTCCAACTGTGCTA: 0.0979 z-score
CCCTGCGTGGTCTCGAGCTGGTGCTAG: -0.807 z-score
CCCATTCTCAGCCCTGCGCATGTGCTA: 0.0435 z-score
ATATGTAAGATATCCATATGGTGCTAG: 0.165 z-score
TTAAAACTGAGTATCGATTAGTGCTAG: 7.27 z-score
ATAGGTATCCTACTGCTTTAGTGCTAG: 0.0418 z-score
GACGATATCAGTATCGAAACGTGCTAG: 5.97 z-score
TTAGGTATCTACACTGGGTTAGTGCTA: 0.231 z-score
CTTTGTTTTTTTCTATATGCGTGCTAG: 1.73 z-score
TCAGCTCTTATATACCTGACTGTGCTA: -0.102 z-score
TTAGGTTTCCTACTCCTTTAGTGCTAG: 0.403 z-score
CCCAGACTTGATTTTGGTCTGTGCTAG: 0.187 z-score
GACGGTTTCGACCCTGGGGACGTGCTA: 3.72 z-score
TTTACTTTCTACGTCTGATTGTGCTAG: 4.34 z-score
GACGAAATCAGTTTCGAGACGTGCTAG: 6.98 z-score
GCTAGTATGTTCCTTATTTAAGTGCTA: 0.325 z-score
GACGCACTGGGACTGGGGACGTGCTAG: -0.392 z-score
TCAGGACTGGACTATCGGTTAGTGCTA: 5.67 z-score
TGTTATTAAATTTTCACGGTGTGCTAG: 0.75 z-score
GTAGAACTGGGGTATCGATTAGTGCTA: 2.2 z-score

Series 2
Target: Centromere-binding protein 1, full length, His-tagged (CBF1, Saccharomyces cerevisiae, UniProt P17106, residues 1-351)
Chain of UniProt P17106 (whole entry, looked up): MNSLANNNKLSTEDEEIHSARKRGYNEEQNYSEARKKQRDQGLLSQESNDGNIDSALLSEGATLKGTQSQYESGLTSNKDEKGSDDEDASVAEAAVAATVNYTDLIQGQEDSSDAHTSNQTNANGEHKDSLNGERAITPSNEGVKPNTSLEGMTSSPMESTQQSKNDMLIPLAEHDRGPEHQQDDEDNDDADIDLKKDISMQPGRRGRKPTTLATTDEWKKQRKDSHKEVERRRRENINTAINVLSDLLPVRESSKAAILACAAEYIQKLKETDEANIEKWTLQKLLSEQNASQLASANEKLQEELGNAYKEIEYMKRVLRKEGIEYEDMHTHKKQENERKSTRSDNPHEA
Technique: competition protein-binding microarray
Form: double-stranded DNA, one strand shown
Matrix: in vitro
Tested at: 2 µM
Notes: whole 60-bp probe, lowest competitor level
Added: Pho4 competitor, 0.05 µM
Reading: higher = stronger binding
Measurement: fluorescence intensity
GATGGGTAACCTGTTTCCGTGACGGAAACATTAGAAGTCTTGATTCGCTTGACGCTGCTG: 74.5 a.u.
CGGGGTTAAGTTTGCGTGGTGGGTGGCTTGCAGCAGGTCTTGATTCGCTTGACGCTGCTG: 64.9 a.u.
TCCTTTTTTGCGAGTCACGTTCCTGCAGCGCGTTTCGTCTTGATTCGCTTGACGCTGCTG: 1310 a.u.
GCGATCCTTTTTTAGCACGTGAACGGTAATAACGGGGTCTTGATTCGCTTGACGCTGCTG: 4390 a.u.
AAAGCGGTAATTTGGAGGGTGGGTGCAGATATCTATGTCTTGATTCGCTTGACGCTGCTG: 79.4 a.u.
GATTCATGGCTTCACCACGGGTCTTTGGCCAAGAGTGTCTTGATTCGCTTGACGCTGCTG: 77.3 a.u.
AAGATTGCTGAAGACCACATGGAGATACTACGCTCCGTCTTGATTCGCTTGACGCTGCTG: 72.7 a.u.
TCAACAATATTGTCCCACGCAGCTATCCTGTCTGTGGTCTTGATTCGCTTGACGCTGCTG: 76.8 a.u.
AAAGCGGTAATTTGGCAAGTGGGTGCAGATATCTATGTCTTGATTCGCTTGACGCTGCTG: 87.3 a.u.
CGTAATTGACATGAACACATGCATTATATTTTTTGTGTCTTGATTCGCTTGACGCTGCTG: 273 a.u.
TGCGCAACAACTTGAACTGTGGGTGTATGTCTAGAAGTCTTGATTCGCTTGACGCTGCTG: 65.2 a.u.
CTTAACGGCCTTGTTGGTGTGACGCTCACCTTGCTCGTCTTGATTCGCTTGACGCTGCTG: 63.5 a.u.
GTCTTGTCTCATTGCTCAGTGGGTGTCCCCACTTCAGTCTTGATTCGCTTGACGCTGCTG: 81.8 a.u.
GTTGGCAGTCTCATCGCCGTGGGTAATCTTGAGTGGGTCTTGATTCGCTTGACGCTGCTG: 74.4 a.u.
ATATAAACGGATGAAAACGTGTTGATAATTGCATCAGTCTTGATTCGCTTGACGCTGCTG: 244 a.u.
TGTTGTAATTTTTGGCATGTGCTATTGTATGAAGATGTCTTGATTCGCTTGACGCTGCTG: 231 a.u.
GTCCGGTTTCAGGAACACGTGTGGAAAATACAGGGCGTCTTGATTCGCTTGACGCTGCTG: 1720 a.u.
ATTTGCATATTCGACTTCGTGCAAACAGAAATGCGGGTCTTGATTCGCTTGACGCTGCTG: 76.6 a.u.

Series 3
Target: CCND1, cyclin fold, Cln2 fusion (human)
Technique: yeast growth competition, sequencing
Matrix: yeast
Notes: weak parent motif
Relative to: not given
Reading: higher = stronger binding
Measurement: normalised enrichment score
Starting sequence: DNAH7 docking peptide (human); HELFQRLDFDNDG; partner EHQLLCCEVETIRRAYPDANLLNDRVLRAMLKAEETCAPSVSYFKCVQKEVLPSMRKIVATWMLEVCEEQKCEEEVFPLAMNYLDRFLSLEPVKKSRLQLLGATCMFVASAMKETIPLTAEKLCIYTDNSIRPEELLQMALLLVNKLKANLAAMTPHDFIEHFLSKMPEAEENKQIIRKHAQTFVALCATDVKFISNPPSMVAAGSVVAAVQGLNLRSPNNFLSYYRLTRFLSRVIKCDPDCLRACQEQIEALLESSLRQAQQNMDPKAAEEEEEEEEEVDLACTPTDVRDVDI
HELFARLDFDNDG [Q5A]: 0.543
HELFQALDFDNDG [R6A]: 0.475
HELAQRLDFDNDG [F4A]: 0.248
HEAFQRLDFDNDG [L3A]: 0.31
HALFQRLDFDNDG [E2A]: 0.396
HELFQRLDADNDG [F9A]: 0.0687

Mixed results
PhoQ, residues 284 288 289 292 302 303 TTSMTC
fold induction (PhoP, residues 12 14 15 18 19 LQHIR (Escherichia coli, UniProt P23836); Sort-seq, measured: YFP reporter; E. coli; PhoQ-PhoP variant library, added: 10 µM Mg2+; relative to: high Mg2+ state, higher = stronger signaling): 14

Repeated from above (series 1):
TTAGGTTTCCTACTCCTTTAGTGCTAG: 0.403 z-score
CCCAGACTTGATTTTGGTCTGTGCTAG: 0.187 z-score
GACGGTTTCGACCCTGGGGACGTGCTA: 3.72 z-score
